Experimental data of several laboratories.
Compare with care: the assays were run in different laboratories. Numbers after ± are the reported error. Values after ≈ are worked out from the molar mass of the structure shown.
Organism: Candida albicans

Structure (SMILES)	assay	system	setting	scale	measurement	value
N=C(N)NCCC[C@@H]1NC(=O)[C@H](CCCNC(=N)N)NC(=O)[C@H](CCCNC(=N)N)NC(=O)[C@@H](CCCNC(=N)N)NC(=O)[C@H](Cc2ccc3ccccc3c2)NC(=O)[C@H](Cc2ccc3ccccc3c2)NC(=O)[C@H](Cc2ccc3ccccc3c2)NC1=O	fungal growth	–	–	–	MIC	8 µg/mL (≈ 6.58 µM)
CC(C)[C@H]1NC(=O)[C@H](Cc2ccccc2)NC(=O)[C@@H](C(C)C)NC(=O)[C@@H](C)NC(=O)[C@H](CO)NC(=O)[C@@H](Cc2c[nH]c3ccccc23)NC(=O)[C@@H](CO)NC1=O	broth dilution	–	–	–	MIC90	> 50 µM
COC(=O)c1cnc(-c2cnccn2)cc1C(=O)OC.COC(=O)c1cnc(-c2cnccn2)cc1C(=O)OC.F[P-](F)(F)(F)(F)F.[Ag+]	biofilm formation, crystal violet staining	ATCC 10231	0.44 µg/mL	–	inhibition	32 ± 5%
OC(Cn1cncn1)(Cn1cc(-[c-]2cccc2)nn1)c1ccc(F)cc1F.[Cl-].[Co+3].c1cc[cH-]c1 (racemic)	EUCAST	SC5314	48 h	–	MIC50	100 µM
CC[C@H]1OC(=O)[C@H](C)[C@@H](OC(=O)Cc2cccc([N+](=O)[O-])c2)[C@H](C)[C@@H](O[C@@H]2O[C@H](C)C[C@H](N(C)C)[C@H]2O)[C@](C)(OC)C[C@@H](C)C(=O)[C@H](C)[C@@H](O)[C@]1(C)O	microbial growth	ATCC90028	–	–	MIC	> 32 µg/mL
CC(C)[C@H](NC(=O)OCc1ccccc1)C(=O)N(C)[C@@H](Cc1ccc(OC(C)(C)C)cc1)C(=O)Nc1ccccc1C(=O)N[C@@H](C)C(=O)O	potentiator, broth microdilution	ATCC 90029	16.0 µg/mL, together with: amphotericin B	reference: amphotericin B alone	fold potentiation	16
N=C(N)NCCC[C@@H]1NC(=O)[C@H](CCCNC(=N)N)NC(=O)[C@@H](C(c2ccccc2)c2ccccc2)NC(=O)[C@H](Cc2c[nH]c3ccccc23)NC(=O)[C@@H](C(c2ccccc2)c2ccccc2)NC(=O)[C@@H](CCCNC(=N)N)NC(=O)[C@@H](CCCNC(=N)N)NC1=O	–	ATCC 60193	1 x MIC, 24 h, preformed biofilm	–	biofilm mass reduction	37%
COC(=O)[C@H](C)NC(=O)c1ccccc1NC(=O)[C@H](Cc1ccc(OC(C)(C)C)cc1)N(C)C(=O)[C@@H](NC(=O)OCc1ccccc1)C(C)C	potentiator, broth microdilution	ATCC 90029	8.0 µg/mL, together with: amphotericin B	reference: amphotericin B alone	fold potentiation	32
CC[C@H]1OC(=O)[C@H](C)[C@@H](OC(=O)Cc2ccc3c(c2)OCO3)[C@H](C)[C@@H](O[C@@H]2O[C@H](C)C[C@H](N(C)C)[C@H]2O)[C@](C)(OC)C[C@@H](C)C(=O)[C@H](C)[C@@H](O)[C@]1(C)O	microbial growth	ATCC90028	–	–	MIC	> 32 µg/mL

Excerpt of the above:
Structure (SMILES)	assay	system	setting	scale	measurement	value
COC(=O)c1cnc(-c2cnccn2)cc1C(=O)OC.COC(=O)c1cnc(-c2cnccn2)cc1C(=O)OC.F[P-](F)(F)(F)(F)F.[Ag+]	biofilm formation, crystal violet staining	ATCC 10231	0.44 µg/mL	–	inhibition	32 ± 5%
